Experimental data of several laboratories.
Compare with care: the assays were run in different laboratories. Numbers after ± are the reported error. Converted amounts (≈) assume the structure as drawn.

SMILES	target or system	test	test system	conditions	scale	quantity	value
CO[C@H]1C[C@@H]2CC[C@@H](C)[C@@](O)(O2)C(=O)C(=O)N2CCCC[C@H]2C(=O)O[C@H]([C@H](C)C[C@@H]2CC[C@@H](OC(=O)NCCOCCOCCOCCOCCOCCOCCOCCOCCC(=O)N3CCc4cc(Cn5nc(-c6ccc7oc(N)nc7c6)c6c(N)ncnc65)ccc4C3)[C@H](OC)C2)C[C@@H](O)[C@H](C)/C=C(\C)[C@@H](O)[C@@H](OC)C(=O)[C@H](C)C[C@H](C)/C=C/C=C/C=C/1C			patients with advanced solid tumours	intravenous, 16 mg weekly, any grade		abdominal pain incidence	25%
N[C@@H]1c2ccccc2OC12CCN(c1cnc3c(N4CCCc5ncccc54)n[nH]c3n1)CC2			advanced solid tumour patients	oral, 60 mg once daily		TEAE causing dose reduction	20%
Cn1cc(-c2nc(N[C@@H]3CCCC[C@@H]3N)c(F)c3c2C(=O)NC3)cn1		item: Mouth haemorrhage	patients with relapsed or refractory AML	oral, 60 mg once daily		hemorrhagic adverse events	25%
Cc1ccccc1NC(=O)Nc1ccc(CC(=O)N[C@@H](CCCCNC(=O)/C=C/c2cccnc2)C(=O)N[C@@H](CCCC(=O)O)C(=O)NC2(C(=O)NCCOCCOCCOCCOCC(=O)N[C@@H](CCCCNC(=S)Nc3ccc(CCCN(CCN4CCN(CP(=O)(O)O)CCN(CP(=O)(O)O)CC4)CC(=O)O)cc3)C(N)=O)CCCCC2)cc1 [gallium-68 labelled]		radio-HPLC	C57BL/6 mice, blood	30 min post-injection		free gallium-68	1.1%
C=CC(=O)N1CC[C@H](n2nc(C#Cc3cc(OC)cc(OC)c3)c3c(N)ncnc32)C1		item: blood creatinine increased	hyperphosphataemia patients	oral, once daily, any grade, phosphate binder users		patients with ADR	12.5%
CC(C)(c1ccc(O)cc1)c1ccc(O)cc1		ultrafiltration	cow milk whey	20 nM nominal in whole milk		dose fraction in permeate	19.8%
C[C@@H](NC(=O)N1C(=O)[C@H](Cc2ccnc(N)c2)[C@H]1C(=O)O)C1CCCCC1			healthy adult Chinese volunteers	continuous intravenous infusion, 2.25 mg/kg/h, 5-day infusion, CTCAE 5.0 grading		incidence of mild AEs	62.5%
CC(C)C[C@H](NC(=O)[C@H](CCCCN)NC(=O)OCC1c2ccccc2-c2ccccc21)C(=O)N[C@H](C(=O)N[C@@H](Cc1ccccc1)C(=O)N[C@@H](Cc1ccccc1)C(=O)N[C@@H](CCCCN)C(=O)NCC(=O)N[C@@H](Cc1ccccc1)C(=O)N[C@@H](C)C(=O)N[C@@H](Cc1c[nH]c2ccccc12)C(=O)N[C@@H](CC(N)=O)C(=O)N[C@H](C(=O)N[C@H]1CSSC[C@@H](C(=O)N[C@@H](Cc2c[nH]cn2)C(=O)N[C@@H](CCCNC(=N)N)C(=O)N[C@@H](CCCNC(=N)N)C(=O)N[C@@H](C)C(=O)N[C@@H](CC(N)=O)C(N)=O)NC(=O)[C@H](C(C)C)NC(=O)[C@H](CCCNC(=N)N)NC(=O)[C@H](C(C)C)NC(=O)CNC(=O)[C@H](CC(N)=O)NC(=O)[C@H](CCCNC(=N)N)NC(=O)[C@H](Cc2ccc(O)cc2)NC(=O)[C@H](C(C)C)NC1=O)C(C)C)C(C)C			ICR mice, serum	intraperitoneal, 5 mg/kg, day 5		AST	25.1 ± 0.55 IU/L
CC[C@H](C)[C@H](NC(=O)[C@H](CO)NC(=O)[C@H](Cc1ccc(O)cc1)NC(=O)[C@@H](NC(=O)[C@@H](N)CCCCN)C(C)C)C(=O)N1CCC[C@H]1C(=O)N[C@@H](Cc1c[nH]cn1)C(=O)N[C@@H](CCC(N)=O)C(=O)N[C@@H](CCSC)C(=O)O	HLA class I histocompatibility antigen, A alpha chain, allele A*02:01 (Homo sapiens, UniProt P04439)	binding				IC50	14.6 µM
COc1c(OCCCN2CCOCC2)ccc2c1N=C(NC(=O)c1cnc(N)nc1)N1CCN=C21			patients with advanced malignancies	intravenous, dose not given, all grades, all cohorts, with: gemcitabine		weight loss incidence	24%
CCC[C@@](N)(CO)CCc1ccc(OCCCCCC(C)C)cc1			male hound dog, plasma	oral, 2.5 mg/kg, solution, geometric mean		AUC(0-inf)	2.47 µM·h
CC(C)CC(=O)OC[C@H]1O[C@@](C#N)(c2ccc3c(N)ncnn23)[C@H](O)[C@@H]1O		comet	Sprague-Dawley rat, stomach and liver cells	oral, dose not given, twice daily for two days		DNA damage	negative
CCc1cc(C(=O)NC)c2nccc(N3CCc4c(cc(Cn5ccnc5)cc4-c4cn(C)nc4C(F)(F)F)C3=O)c2c1			Sprague Dawley rats, male, bile duct-cannulated, bile	oral, 50 mg/kg, 24 h		fraction of dose excreted	0.5 ± 0.4%
O=C1Nc2cc3[nH]nc(-c4ccncc4)c3cc2CN1Cc1ccccc1		item: transaminases increased	patients with advanced solid tumours	intravenous, dose not given		patients with grade ≥3 TEAE	7%
CC[C@H](C)[C@H](NC(=O)[C@H](CC(C)C)NC(=O)[C@H](Cc1c[nH]c2ccccc12)NC(=O)[C@H](CCC(N)=O)NC(=O)[C@@H](NC(=O)[C@H](Cc1ccccc1)NC(=O)[C@H](C)NC(=O)[C@H](CCCCNC(=O)COCCOCCNC(=O)COCCOCCNC(=O)CC[C@H](NC(=O)CCCCCCCCCCCCCCCCCCC(=O)O)C(=O)O)NC(=O)[C@H](CCC(N)=O)NC(=O)[C@H](C)NC(=O)[C@@H](NC(=O)[C@H](CCCCN)NC(=O)[C@H](CC(=O)O)NC(=O)[C@H](CC(C)C)NC(=O)C(C)(C)NC(=O)[C@@H](NC(=O)[C@H](CO)NC(=O)[C@H](Cc1ccc(O)cc1)NC(=O)[C@H](CC(=O)O)NC(=O)[C@H](CO)NC(=O)[C@@H](NC(=O)[C@H](Cc1ccccc1)NC(=O)[C@@H](NC(=O)CNC(=O)[C@H](CCC(=O)O)NC(=O)C(C)(C)NC(=O)[C@@H](N)Cc1ccc(O)cc1)[C@@H](C)O)[C@@H](C)O)[C@@H](C)CC)[C@@H](C)CC)C(C)C)C(=O)N[C@@H](C)C(=O)NCC(=O)NCC(=O)N1CCC[C@H]1C(=O)N[C@@H](CO)C(=O)N[C@@H](CO)C(=O)NCC(=O)N[C@@H](C)C(=O)N1CCC[C@H]1C(=O)N1CCC[C@H]1C(=O)N1CCC[C@H]1C(=O)N[C@@H](CO)C(N)=O			human, plasma	5 mg, week 8		median tmax	48 h
COc1ccc([C@@H](O)c2cc(-c3ncnc4cc(N5CCOCC5)ccc34)c(F)cc2Cl)nn1			patients, advanced solid tumours	oral, 400 mg twice daily, treatment-emergent, with: avelumab		metabolism, nutrition disorders incidence	4%
O=C(Nc1ccccc1)C1CCN(C(=O)Oc2cccnc2)CC1		adverse event reporting	healthy women	oral, 20 mg, 7 days		subjects with pain in extremity	7.1%
C1=Cc2nc1cc1ccc([n-]1)c(C1CC1)c1nc(cc3ccc([n-]3)c2C2CC2)C=C1.CC(=O)[O-].[Mn+3]		LC-MS/MS	Sprague-Dawley rat, plasma	oral gavage, dose not given, 360 min, individual rat Rat2		plasma concentration	187 ng/mL

SMILES	target or system	test	test system	conditions	scale	quantity	value
CC1(C)C(/C=C(\Cl)C(F)(F)F)C1C(=O)OC(C#N)c1cccc(Oc2ccccc2)c1 (stereo not drawn)		item: CYP2C19	human, age 1 year			enzyme contribution to clearance	0.43%
O=C(O)CCC(CP(=O)(O)O)C(=O)O (stereo not drawn)			rat, processed derivatized plasma	0.3 µg/mL, 18 h, 10 °C, autosampler stability		measured concentration	0.338 ± 0.014 µg/mL
CC[C@H](C)[C@H](NC(=O)[C@H](CCCCN)NC(=O)[C@H](CCC(=O)O)NC(=O)[C@H](CCCCN)NC(=O)[C@H](CO)NC(=O)[C@H](CCCCN)NC(=O)[C@H](CCCNC(=N)N)NC(=O)[C@H](Cc1ccccc1)NC(=O)[C@H](Cc1ccccc1)NC(=O)[C@H](CC(=O)O)NC(=O)CNC(=O)[C@H](CC(C)C)NC(=O)[C@@H](N)CC(C)C)C(=O)NCC(=O)N[C@@H](CCCCN)C(=O)N[C@@H](CCC(=O)O)C(=O)N[C@@H](Cc1ccccc1)C(=O)N[C@@H](CCCCN)C(=O)N[C@@H](CCCNC(=N)N)C(=O)N[C@H](C(=O)N[C@H](C(=O)N[C@@H](CCC(N)=O)C(=O)N[C@@H](CCCNC(=N)N)C(=O)N[C@H](C(=O)N[C@@H](CCCCN)C(=O)N[C@@H](CC(=O)O)C(=O)N[C@@H](Cc1ccccc1)C(=O)N[C@@H](CC(C)C)C(=O)N[C@@H](CCCNC(=N)N)C(=O)N[C@@H](CC(N)=O)C(=O)N[C@@H](CC(C)C)C(=O)N[C@H](C(=O)N1CCC[C@H]1C(=O)N[C@@H](CCCNC(=N)N)C(=O)N[C@H](C(=O)N[C@@H](CCC(=O)O)C(=O)N[C@@H](CO)C(=O)O)[C@@H](C)O)C(C)C)[C@@H](C)CC)C(C)C)[C@@H](C)CC		LC-MS	50% pooled human serum	40 µM, 540 min, pH 7.5, 37 °C	baseline: 0 h	remaining intact peptide	0%
C[C@]1(CO)Cc2ncn(-c3ccc(C#N)c(Cl)c3)c2C(=O)O1		item: abnormal skin odour	human	3 mg multiple doses, fasted		subjects with drug-related TEAE	11.1%
CN[C@@H](C)C(=O)N[C@H]1CN(S(=O)(=O)c2cccc(S(=O)(=O)N3CC[C@H]4CC[C@@H](C(=O)NC(c5ccccc5)c5ccccc5)N4C(=O)[C@@H](NC(=O)[C@H](C)NC)C3)c2)CC[C@H]2CC[C@@H](C(=O)NC(c3ccccc3)c3ccccc3)N2C1=O			patients with advanced solid tumours	7 mg, phase I monotherapy		treatment-related ALT elevation incidence	0%
C[C@H]1COCCN1c1nc(NCc2cccnc2C(F)(F)F)c2cccnc2n1			SCID BALB/c mice	oral, 90 mg/kg		AUC(0-24 h)	132 µg·h/mL
COc1cc(Nc2ncc(F)c(Nc3ccc4c(n3)NC(=O)C(C)(C)O4)n2)cc(OC)c1OC			kinase assay buffer	3 h, 0.3% DMSO		solubility	74.3 µM (≈ 35 µg/mL)
O=S(=O)(Nc1ccc2c(c1)B(O)OC2)c1ccc(Cl)cc1		PAMPA	pre-coated trilayer membrane	200 µM, 5 h, pH 7.4, acceptor plate, PBS		acceptor concentration	8.4 ± 2.6 µM
O=S(=O)(Nc1ccccc1)c1ccc(NC(=S)Nc2ccccc2)cc1		item: LY%	female mouse, blood	oral, 20 mg/kg daily, 14 days		blood cell fraction	59.9%
O=c1cc(-c2ccccc2)oc2cc(O)ccc12			CD-1 mice, liver microsomes	5 µM, with: imiquimod		imiquimod metabolism	decreased
COc1cc2c(Oc3ccc4[nH]c(C)cc4c3F)ccnc2cc1OCC1(N)CC1			paediatric recurrent refractory sarcoma	12 mg		grade 1 or 2 Nausea	9.1%
Nc1ncnc2c1ncn2[C@@H]1O[C@@H]2COP(=O)([S-])O[C@@H]3[C@H](O)[C@@H](COP([O-])(=S)O[C@H]2[C@H]1O)O[C@H]3n1cnc2c(N)ncnc21.[Na+].[Na+] (stereo partly drawn)			non-tumour-bearing mice, blood	intravenous, 1 mg/kg		serum albumin	30.1 ± 0.87 g/L
CCc1ccc(CC/C=C/c2ccc3c(c2)C(=O)CC3)cc1			Sprague-Dawley rat, female	oral, 120 mg/kg/day, 14 days		Urea	7.07 mM
CCNCCCNC/C=C\CNCCCNCC			human, advanced solid tumours	intravenous, dose not given	baseline: patients	drug-related TEAE, investigations	8.7%
Cc1cc(C)nc(Nc2ncc(C(=O)NCCc3c(C)[nH]c4ccccc34)cn2)c1			beagle dog			oral bioavailability	30%
COc1ccc2nc3cc(Cl)ccc3c(Nc3cc(CN4CCCC4)c(O)c(CN4CCCC4)c3)c2n1			mouse, blood	intraperitoneal, 28 mg/kg		platelet count	126 10⁹/L
CC[C@H](C)[C@H](NC(=O)[C@H](Cc1ccccc1)NC(=O)[C@H](CCC(=O)O)NC(=O)[C@H](CCCNC(=N)N)NC(=O)[C@H](C)NC(=O)[C@H](C)NC(=O)[C@H](CCC(N)=O)NC(=O)[C@H](CCC(=O)O)NC(=O)[C@H](CCC(=O)O)NC(=O)[C@H](CC(C)C)NC(=O)[C@H](Cc1ccc(O)cc1)NC(=O)[C@H](CO)NC(=O)[C@H](CO)NC(=O)[C@@H](NC(=O)[C@H](CC(=O)O)NC(=O)[C@H](CO)NC(=O)[C@@H](NC(=O)[C@H](Cc1ccccc1)NC(=O)[C@@H](NC(=O)CNC(=O)[C@H](CCC(=O)O)NC(=O)[C@H](C)NC(=O)CCc1cnc[nH]1)[C@@H](C)O)[C@@H](C)O)C(C)C)C(=O)N[C@@H](C)C(=O)N[C@@H](Cc1c[nH]c2ccccc12)C(=O)N[C@@H](CC(C)C)C(=O)N[C@H](C(=O)N[C@@H](CCCNC(=N)N)C(=O)NCC(=O)N[C@@H](CCCNC(=N)N)C(=O)N[C@@H](CCCCNC(=O)COCCOCCNC(=O)COCCOCCNC(=O)CC[C@H](NC(=O)CCCCCCCCCCCCCCCCC(=O)O)C(=O)O)C(=O)NCC(=O)NCC(=O)N[C@@H](CO)C(=O)N[C@@H](CCCCNC(=O)[C@H](CCCCNC(=O)[C@H](CCCCNc1c(NCCCCCN(O)C(=O)CCC(=O)NCCCCCN(O)C(=O)CCC(=O)NCCCCCN(O)C(C)=O)c(=O)c1=O)Nc1c(NCCCCCN(O)C(=O)CCC(=O)NCCCCCN(O)C(=O)CCC(=O)NCCCCCN(O)C(C)=O)c(=O)c1=O)NC(=O)[C@H](CCCCNc1c(NCCCCCN(O)C(=O)CCC(=O)NCCCCCN(O)C(=O)CCC(=O)NCCCCCN(O)C(C)=O)c(=O)c1=O)Nc1c(NCCCCCN(O)C(=O)CCC(=O)NCCCCCN(O)C(=O)CCC(=O)NCCCCCN(O)C(C)=O)c(=O)c1=O)C(=O)O)C(C)C [zirconium-89 labelled]		ex vivo gamma counting	male Sprague-Dawley rats, liver	intravenous, 1 nmol, 24 h		tissue uptake	3.67 %ID/g
COCCOc1cnc2ccn([C@H](C)c3nnc4c(F)cc(-c5cnn(C)c5)cn34)c(=O)c2c1			human patients	oral		maximum tolerated dose	300 mg once daily
